Earlier results that unrelated publications cite.
Compare with care: the assays were run in different laboratories. ± gives the spread as reported.
PCNA: Proliferating cell nuclear antigen (PCNA, Homo sapiens, UniProt P12004)

Amino acid sequences for entries named in this document (tags omitted). Residues count along the entry.
UniProt P12004, whole entry: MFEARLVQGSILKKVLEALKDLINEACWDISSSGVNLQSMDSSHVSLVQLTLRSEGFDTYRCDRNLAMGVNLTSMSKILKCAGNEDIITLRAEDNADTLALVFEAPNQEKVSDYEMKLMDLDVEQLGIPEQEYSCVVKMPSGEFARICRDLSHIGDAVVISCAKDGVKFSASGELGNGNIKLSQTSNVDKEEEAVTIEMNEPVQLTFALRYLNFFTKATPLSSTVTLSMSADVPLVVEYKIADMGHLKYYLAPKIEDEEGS
UniProt P08253, 110-660 limits assumed: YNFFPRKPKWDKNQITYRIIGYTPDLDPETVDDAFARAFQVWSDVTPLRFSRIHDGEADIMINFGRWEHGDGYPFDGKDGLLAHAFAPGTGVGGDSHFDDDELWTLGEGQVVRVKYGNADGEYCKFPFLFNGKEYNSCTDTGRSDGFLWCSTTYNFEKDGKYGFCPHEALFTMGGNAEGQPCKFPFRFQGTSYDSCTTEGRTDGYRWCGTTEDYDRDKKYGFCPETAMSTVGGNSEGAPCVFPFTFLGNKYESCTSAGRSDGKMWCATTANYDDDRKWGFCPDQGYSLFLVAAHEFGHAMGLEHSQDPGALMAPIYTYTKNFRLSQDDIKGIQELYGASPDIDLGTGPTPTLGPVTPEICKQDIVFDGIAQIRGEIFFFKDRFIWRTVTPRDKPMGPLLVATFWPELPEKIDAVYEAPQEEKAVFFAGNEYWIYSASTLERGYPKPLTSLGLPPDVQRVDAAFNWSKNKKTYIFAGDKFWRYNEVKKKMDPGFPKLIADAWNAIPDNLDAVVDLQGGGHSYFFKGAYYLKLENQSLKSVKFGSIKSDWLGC
UniProt P0DOF5, whole entry: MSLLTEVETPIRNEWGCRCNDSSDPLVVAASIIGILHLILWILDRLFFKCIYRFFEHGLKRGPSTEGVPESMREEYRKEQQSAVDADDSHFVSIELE

CSCC[C@H](N)C(=O)N[C@@H](CCC(=O)O)C(=O)N[C@@H](CCC(N)=O)C(=O)N[C@@H](CCCNC(=N)N)C(=O)N[C@@H](CCCNC(=N)N)C(=O)N[C@H](C(=O)N[C@H](C(=O)N[C@@H](CC(=O)O)C(=O)N[C@@H](Cc1ccccc1)C(=O)N[C@@H](Cc1ccccc1)C(=O)N[C@@H](C)C(=O)N[C@@H](CCCNC(=N)N)C(=O)N[C@@H](CCCNC(=N)N)C(=O)N[C@@H](CCCNC(=N)N)C(=O)O)[C@@H](C)O)C(C)C
Kd (PCNA; binding): 7.2 µM

CC(C)C[C@H](NC(=O)[C@@H]1CCCN1)C(=O)NCC(=O)N[C@H](C(=O)N[C@@H](CCCNC(=N)N)C(=O)O)C(C)C
kcat (MMP2 (Homo sapiens, UniProt P08253); substrate): 4.1 s⁻¹

C1CCC2(CC1)CCNCC2
IC50 (Matrix protein 2 (Influenza A virus, UniProt P0DOF5); inhibitor): 900 ± 100 nM

CC(C)C[C@H](NC(=O)[C@H](CO)NC(=O)CNC(=O)[C@@H](NC(=O)[C@@H](NC(=O)[C@H](CCCCN)NC(=O)[C@H](Cc1ccccc1)NC(=O)[C@H](Cc1ccccc1)NC(=O)[C@H](CC(=O)O)NC(=O)[C@H](CC(=O)O)NC(=O)[C@H](CC(C)C)NC(=O)[C@H](CCCNC(=N)N)NC(=O)CNC(=O)[C@H](CCC(N)=O)NC(=O)[C@@H](NC(=O)[C@H](CO)NC(=O)CNC(=O)[C@H](CCC(N)=O)NC(=O)[C@H](CCCNC(=N)N)NC(=O)[C@@H](N)CO)[C@@H](C)O)C(C)C)[C@@H](C)O)C(=O)O
Kd (PCNA; binding): 59.9 µM

CC[C@H](C)[C@H](NC(=O)CNC(=O)[C@@H](NC(=O)[C@H](CCC(=O)O)NC(=O)CN)[C@@H](C)CC)C(=O)N[C@@H](CCCNC(=N)N)C(=O)N[C@@H](CC(N)=O)C(=O)N[C@@H](Cc1c[nH]c2ccccc12)C(=O)N[C@@H](CC(C)C)C(=O)O
IC50 (HLA class I histocompatibility antigen, A alpha chain, allele A*26:03 (Homo sapiens, UniProt P04439)): > 20000 nM

A few entries again:
CC(C)C[C@H](NC(=O)[C@H](CO)NC(=O)CNC(=O)[C@@H](NC(=O)[C@@H](NC(=O)[C@H](CCCCN)NC(=O)[C@H](Cc1ccccc1)NC(=O)[C@H](Cc1ccccc1)NC(=O)[C@H](CC(=O)O)NC(=O)[C@H](CC(=O)O)NC(=O)[C@H](CC(C)C)NC(=O)[C@H](CCCNC(=N)N)NC(=O)CNC(=O)[C@H](CCC(N)=O)NC(=O)[C@@H](NC(=O)[C@H](CO)NC(=O)CNC(=O)[C@H](CCC(N)=O)NC(=O)[C@H](CCCNC(=N)N)NC(=O)[C@@H](N)CO)[C@@H](C)O)C(C)C)[C@@H](C)O)C(=O)O
Kd (PCNA; binding): 59.9 µM
